Experimental data pooled from the literature.
Each numbered part is a random draw from the data of one study; scales do not carry over between parts. Substitutions count along the parent as printed.

Block 1
Target: Prothrombin, mature alpha-thrombin (F2, Homo sapiens, UniProt P00734)
Technique: aptamer microarray, sandwich
Molecule type: DNA with 2'F-ANA
Matrix: in vitro
Concentration: 200 nM
Setting: whole 15-mer aptamer, many near background
Added: Cy3 exosite-II aptamer, 400 nM
Direction: higher = stronger binding
Oligonucleotide: GGTTGGTGTGGTTGG
Modification	mean fluorescence intensity
2'F-ANA at 1 2 3 4 5 6 8 9 13 14 15	64.6 a.u.
2'F-ANA at 1 2 4 5 7 9 10 12 14	46 a.u.
2'F-ANA at 1 2 4 5 8 10 11 13 15	48.5 a.u.
2'F-ANA at 1 3 4 7 8 9 12 14 15	89.6 a.u.
2'F-ANA at 4 5 8 12	171 a.u.
2'F-ANA at 1 2 4 5 6 9 10 14	56.4 a.u.
2'F-ANA at 3 4 5 7 8 9 10 13	48.3 a.u.
2'F-ANA at 2 4 6 8 11 12	489 a.u.
2'F-ANA at 1 2 3 6 7 9 15	187 a.u.
2'F-ANA at 1 2 4 7 9 10 11 12 15	56.6 a.u.
2'F-ANA at 3 4 5 8 12 13 14 15	55.7 a.u.
2'F-ANA at 2 3 5 7 8 9 10 11 12 14 15	53.6 a.u.
2'F-ANA at 3 6 8 9 11 13 15	747 a.u.
2'F-ANA at 4 9 10 11 14	59.4 a.u.
2'F-ANA at 1 2 9 13 14	81.6 a.u.
2'F-ANA at 2 4 5 7 9 11 12 14	45.5 a.u.
2'F-ANA at 1 2 3 5 6 7 9 10 11 12 15	52.9 a.u.
2'F-ANA at 2 4 6 8 9 10	82 a.u.
2'F-ANA at 2 7 8 9 10 11 12	153 a.u.
2'F-ANA at 2 3 4 5 6 8 9 12 14 15	60.7 a.u.
2'F-ANA at 2 7 9 11 12	621 a.u.
2'F-ANA at 5 6 7 8 11 13	60.7 a.u.
2'F-ANA at 4 6 7 8 11 13 14	88.4 a.u.
2'F-ANA at 2 3 5 8 9 11 14	56 a.u.
2'F-ANA at 1 5 10 11 14	54.3 a.u.

Block 2
Target: Phosphate system positive regulatory protein PHO4, full length, GST-tagged (PHO4, Saccharomyces cerevisiae, UniProt P07270, residues 1-312)
Technique: competition protein-binding microarray
Molecule type: double-stranded DNA, one strand shown
Matrix: in vitro
Concentration: 2 µM
Setting: whole 60-bp probe, lowest competitor level
Added: Cbf1 competitor, 0.05 µM
Direction: higher = stronger binding
Constant ends, left off below: … GTCTTGATTCGCTTGACGCTGCTG
Target sequence (chain): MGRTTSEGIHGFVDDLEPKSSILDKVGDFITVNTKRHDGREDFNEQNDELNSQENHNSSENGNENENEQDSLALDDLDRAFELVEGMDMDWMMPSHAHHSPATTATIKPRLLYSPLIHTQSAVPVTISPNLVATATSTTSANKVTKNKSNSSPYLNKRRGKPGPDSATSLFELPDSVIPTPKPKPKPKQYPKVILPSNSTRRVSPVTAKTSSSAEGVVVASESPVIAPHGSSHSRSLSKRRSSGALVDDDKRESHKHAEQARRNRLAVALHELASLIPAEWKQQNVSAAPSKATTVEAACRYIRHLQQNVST
Oligonucleotide	fluorescence intensity [a.u.]
CGAGTGTCATATTATATTAGATATTCATTTTTTTGC	3670
GCCCATTAAAAATAATATGTGTGAGCTTCTTCCACA	4300
GTCCTTTGGTGGTTCAACGTGAGTCAAGTCCTTGAA	7530
AAAGCGGTAATTTGCTTCGTGGGTGCAGATATCTAT	6450
TCGTTTAGAGTTATCATCGTGCCAGGACCCAGTGAT	11100
ATTCTGAGCAATATCTCCGTGCCAGAAATAAGCCCC	4890
GAAAGCACTTTACTTCACGTGGGTACTATTCAGGTT	15900
CACCTAACAGGCCGTCACGGCCCTGCATCGCAGATT	4200
TGCCCGCCATCGAGTCACATGTTCCTACAGATGAAG	9360
AATCTCTGGCTTCACCACGTTTTCCAGCTTCAAAGA	12000
TTGAGTGTCGTCTGGCACGTGGAGGTCCCTCCTCAG	13900
CTTTCCCGATCTTGCTAGGTGGGTGTAGCACATTTG	4400
CTTTCCCGATCTTGGTGTGTGGGTGTAGCACATTTG	6880
CGTCCTAGCGATTGACCAGTGGGTGCCATGAGGAAG	6780
AGTATCCTCGACCTACACGTCTTCACCATCAGCACC	7180
CTAACGAAGGTTTATCACGTGTTTTACAAGCCAAGT	13400
AAGTGCCGTTTCTAAAACGTGGTCGAATAATCCTCA	11900
CGGGGTTAAGTTTGCTGCGTGGGTGGCTTGCAGCAG	8580
CTTCTGTAAATTTGGGGCGTGGGTGGACGCGCCCCG	9020
GTCGACAACTACTTAGTCGTGATGGAACAGTATGGA	5040
CTTTCCCGATCTTGGTAAGTGGGTGTAGCACATTTG	4300
TGCGCAACAACTTGGTGCGTGGGTGTATGTCTAGAA	8690

Block 3
Target: ABI1, truncated, D143A, DHFR fusion (Arabidopsis thaliana, UniProt P49597)
Technique: DHFR PCA, dose-response
Matrix: yeast
Setting: Hill fit, mean, not affinity
Added: (+)-ABA, dose series
Direction: lower = more sensitive
Starting sequence: PYL1, truncated, DHFR fusion (Arabidopsis thaliana, UniProt Q8VZS8); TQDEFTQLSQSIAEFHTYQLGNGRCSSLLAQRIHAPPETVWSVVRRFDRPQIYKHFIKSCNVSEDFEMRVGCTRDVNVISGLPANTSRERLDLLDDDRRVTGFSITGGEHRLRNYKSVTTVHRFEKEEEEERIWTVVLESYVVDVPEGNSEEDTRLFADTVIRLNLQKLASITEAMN
Substitution	ABA EC50 [µM]
S26F	8.36
D65I	18.7
K58I	71.2
V136S	335
T39C	3.65
L29A	66.1
S9N	8.03
E152W	4.83
D96P	94.5
H122N	80.7
K58H	5.26
C60N	365
D92T	17.3
S11L	5.11

Block 4
Target: CCNE1, cyclin fold, Cln2 fusion (human)
Technique: yeast growth competition, sequencing
Matrix: yeast
Setting: weak parent motif
Reference: not given
Direction: higher = stronger binding
Starting sequence: MASTL docking peptide (human); PMIAKNLMCELDE
Substitution	normalised enrichment score
PMIASNLMCELDE [K5S]	-0.31
PMIAKNLMCELNE [D12N]	-0.0513
PMIAKNLMCELVE [D12V]	0.103
PMIAKHLMCELDE [N6H]	-0.151
PMCAKNLMCELDE [I3C]	0.264
PMIAKNLMDELDE [C9D]	0.0723
PMMAKNLMCELDE [I3M]	0.0101
PEIAKNLMCELDE [M2E]	-0.0373
PMIAKNLMCEWDE [L11W]	0.133
PMIAKKLMCELDE [N6K]	0.104
PMIWKNLMCELDE [A4W]	0.576
PMIAKVLMCELDE [N6V]	0.27
PMIAKNLMCILDE [E10I]	0.567
PMIAKNLMCEYDE [L11Y]	-0.0269
PMIAKTLMCELDE [N6T]	0.217
PMIAYNLMCELDE [K5Y]	0.037
PMIAKNLMCWLDE [E10W]	0.113
PMIAKNLMCRLDE [E10R]	-2.93e-05
PMGAKNLMCELDE [I3G]	0.178
PMIAKNLMIELDE [C9I]	-0.121
PMIAANLMCELDE [K5A]	-0.0662
PMIYKNLMCELDE [A4Y]	0.0473
PMIAKNLKCELDE [M8K]	-0.0453
PMIAKNLMCNLDE [E10N]	0.232
PMKAKNLMCELDE [I3K]	0.0593
